# Results gathered from unrelated publications.
# Protocols differ between the studies behind these lines.
# Organism: Escherichia coli
SMILES,test,system,conditions,how to read,measurement,result
CC[C@H](C)[C@H](NC(=O)[C@H](CCCCN)NC(=O)[C@H](CCCCN)NC(=O)[C@H](CC(C)C)NC(=O)[C@H](CCCCN)NC(=O)[C@H](CCC(=O)O)NC(=O)[C@H](CCCCN)NC(=O)[C@@H](NC(=O)[C@H](CCCCN)NC(=O)[C@H](CC(N)=O)NC(=O)[C@H](CCCNC(=N)N)NC(=O)[C@H](Cc1ccccc1)NC(=O)[C@H](CCCCN)NC(=O)[C@H](CCCNC(=N)N)NC(=O)[C@H](CC(C)C)NC(=O)[C@H](CCCNC(=N)N)NC(=O)[C@H](CCCCN)NC(=O)[C@H](CCCNC(=N)N)NC(=O)[C@H](CC(C)C)NC(=O)[C@@H](N)CCCNC(=N)N)[C@@H](C)CC)C(=O)NCC(=O)N[C@@H](CCC(N)=O)C(=O)N[C@@H](CCCCN)C(=O)N[C@H](C(=O)N[C@@H](CCC(N)=O)C(=O)NCC(=O)N[C@@H](Cc1ccccc1)C(=O)N[C@H](C(=O)N1CCC[C@H]1C(=O)N[C@@H](CCCCN)C(=O)N[C@@H](CC(C)C)C(=O)N[C@@H](CCC(N)=O)C(=O)N1CCC[C@H]1C(=O)N[C@@H](CO)C(=O)N[C@@H](CCCCN)C(=O)N[C@@H](CCC(N)=O)C(=O)N[C@@H](CO)C(=O)O)C(C)C)[C@@H](C)CC,inhibition zone,DH5α,,,lethal concentration,2.51 µM
CC[C@H](C)[C@H](NC(=O)[C@H](CCCN)NC(=O)[C@H](CC(N)=O)NC(=O)[C@H](Cc1c[nH]c2ccccc12)NC(=O)[C@H](Cc1ccccc1)NC(=O)[C@H](CCCN)NC(=O)[C@H](CCCCNC(=N)N)NC(=O)[C@H](CC(C)C)NC(=O)[C@H](Cc1c[nH]c2ccccc12)NC(=O)[C@H](CCCN)NC(=O)[C@H](CCCCNC(=N)N)NC(=O)[C@H](CC(C)C)NC(=O)CNC(C)=O)C(=O)N[C@@H](CCCN)C(=O)N[C@@H](CCCCNC(=N)N)C(N)=O,,ATCC 25922,"1/2 x MIC, established biofilm",,biofilm cells killed,> 50%
CC[C@H](C)[C@H](NC(=O)[C@H](CCCCN)NC(=O)[C@H](CCCCN)NC(=O)[C@H](CC(C)C)NC(=O)[C@H](CCCCN)NC(=O)[C@H](CCC(=O)O)NC(=O)[C@H](CCCCN)NC(=O)[C@@H](NC(=O)[C@H](CCCCN)NC(=O)[C@H](CC(N)=O)NC(=O)[C@H](CCCNC(=N)N)NC(=O)[C@H](Cc1ccccc1)NC(=O)[C@H](CCCCN)NC(=O)[C@H](CCCNC(=N)N)NC(=O)[C@H](CC(C)C)NC(=O)[C@H](CCCNC(=N)N)NC(=O)[C@H](CCCCN)NC(=O)[C@H](CCCNC(=N)N)NC(=O)[C@@H](N)CC(C)C)[C@@H](C)CC)C(=O)NCC(=O)N[C@@H](CCC(N)=O)C(=O)N[C@@H](CCCCN)C(=O)N[C@H](C(=O)N[C@@H](CCC(N)=O)C(=O)NCC(=O)N[C@@H](Cc1ccccc1)C(=O)N[C@H](C(=O)N1CCC[C@H]1C(=O)N[C@@H](CCCCN)C(=O)N[C@@H](CC(C)C)C(=O)O)C(C)C)[C@@H](C)CC,inhibition zone,JM109,,,lethal concentration,1.5 µM
CCCCCCCCCCCCCC(=O)N[C@@H](CCCCN)C(=O)N[C@@H](CCCCN)C(=O)N[C@@H](CCCCN)C(=O)N[C@@H](CCCCN)C(N)=O,,K12,,,MBC,128 µg/mL
CC(C)=CCNCCOC1C2CC3CC(C2)CC1C3 (centres unmarked),growth,,,,IC50,9 µg/mL
CC[C@H](C)[C@H](NC(=O)[C@H](CCCNC(=N)N)NC(=O)[C@H](CCCCN)NC(=O)[C@H](CC(C)C)NC(=O)[C@H](CC(C)C)NC(=O)CN)C(=O)N[C@@H](CCCCN)C(=O)N[C@H](C(=O)N[C@@H](CC(C)C)C(=O)N[C@@H](CC(C)C)C(=O)NCCCC[C@H](NC(=O)[C@H](CC(C)C)NC(=O)[C@H](CC(C)C)NC(=O)[C@@H](NC(=O)[C@H](CCCCN)NC(=O)[C@@H](NC(=O)[C@H](CCCNC(=N)N)NC(=O)[C@H](CCCCN)NC(=O)[C@H](CC(C)C)NC(=O)[C@H](CC(C)C)NC(=O)CN)[C@@H](C)CC)[C@@H](C)O)C(N)=O)[C@@H](C)O,checkerboard,ATCC 25922,added: rifampicin,,FIC index,0.25
C[C@]1(COC(=O)Cc2ccc(O)c(O)c2)[C@H](C(=O)O)N2C(=O)/C(=C/c3ccccn3)[C@H]2S1(=O)=O,broth microdilution,TG1 expressing CMY-2,16 µg/mL,,MIC of ceftazidime,≤ 0.06 µg/mL
CC[C@H](C)[C@H](NC(=O)[C@H](CO)NC(=O)[C@H](CO)NC(=O)[C@H](Cc1ccccc1)NC(=O)CN)C(=O)N[C@@H](Cc1ccccc1)C(=O)N[C@@H](CCCNC(=N)N)C(N)=O,,ATCC 8739,added: 6 µM NH4Cl,,MBC,> 128 µM
CC[C@H](C)[C@H](NC(=O)[C@H](CCCNC(=N)N)NC(=O)[C@H](CCCCN)NC(=O)[C@H](CC(C)C)NC(=O)[C@H](CC(C)C)NC(=O)CN)C(=O)N[C@@H](CCCCN)C(=O)N[C@H](C(=O)N[C@@H](CC(C)C)C(=O)N[C@@H](CC(C)C)C(=O)NCCCC[C@H](NC(=O)[C@H](CCCCNC(=O)[C@H](CC(C)C)NC(=O)[C@H](CC(C)C)NC(=O)[C@@H](NC(=O)[C@H](CCCCN)NC(=O)[C@@H](NC(=O)[C@H](CCCNC(=N)N)NC(=O)[C@H](CCCCN)NC(=O)[C@H](CC(C)C)NC(=O)[C@H](CC(C)C)NC(=O)CN)[C@@H](C)CC)[C@@H](C)O)NC(=O)[C@H](CC(C)C)NC(=O)[C@H](CC(C)C)NC(=O)[C@@H](NC(=O)[C@H](CCCCN)NC(=O)[C@@H](NC(=O)[C@H](CCCNC(=N)N)NC(=O)[C@H](CCCCN)NC(=O)[C@H](CC(C)C)NC(=O)[C@H](CC(C)C)NC(=O)CN)[C@@H](C)CC)[C@@H](C)O)C(N)=O)[C@@H](C)O,checkerboard,ATCC 25922,added: polymyxin B,,FIC index,0.25
CC[C@H](C)[C@H](NC(=O)[C@H](CO)NC(=O)[C@H](CO)NC(=O)[C@H](Cc1ccccc1)NC(=O)CN)C(=O)N[C@@H](Cc1ccccc1)C(=O)N[C@@H](CCCNC(=N)N)C(=O)NCC(=O)N[C@H](C(=O)N[C@@H](C)C(=O)N[C@@H](CCCCN)C(=O)N[C@@H](Cc1ccccc1)C(=O)N[C@@H](C)C(=O)N[C@@H](CO)C(=O)N[C@@H](CCCCN)C(N)=O)C(C)C,,ATCC 8739,MIC,,time to complete killing,≤ 20 min
CC[C@H](C)[C@H](NC(=O)[C@@H]1CCCN1C(=O)[C@H](CCCNC(=N)N)NC(=O)[C@@H]1CCCN1C(=O)[C@@H]1CCCN1C(=O)[C@@H](NC(=O)[C@@H]1CCCN1C(=O)[C@H](CCCNC(=N)N)NC(=O)[C@@H]1CCCN1C(=O)[C@H](CC(C)C)NC(=O)[C@H](Cc1ccc(O)cc1)NC(=O)[C@H](CO)NC(=O)CNC(=O)[C@H](CCCCN)NC(=O)[C@H](CC(=O)O)NC(=O)[C@@H](NC(=O)[C@H](CCCCN)NC(=O)c1ccc2c(c1)C(=O)OC21c2ccc(O)cc2Oc2cc(O)ccc21)C(C)C)[C@@H](C)O)C(=O)N[C@@H](Cc1ccc(O)cc1)C(=O)N[C@@H](CC(N)=O)C(=O)N[C@@H](CCCNC(=N)N)C(=O)N[C@@H](CC(N)=O)C(N)=O,,D22,,baseline: Py,MIC ratio,64 to 512 fold

# Repeated from above:
SMILES,test,system,conditions,how to read,measurement,result
CC[C@H](C)[C@H](NC(=O)[C@H](CCCCN)NC(=O)[C@H](CCCCN)NC(=O)[C@H](CC(C)C)NC(=O)[C@H](CCCCN)NC(=O)[C@H](CCC(=O)O)NC(=O)[C@H](CCCCN)NC(=O)[C@@H](NC(=O)[C@H](CCCCN)NC(=O)[C@H](CC(N)=O)NC(=O)[C@H](CCCNC(=N)N)NC(=O)[C@H](Cc1ccccc1)NC(=O)[C@H](CCCCN)NC(=O)[C@H](CCCNC(=N)N)NC(=O)[C@H](CC(C)C)NC(=O)[C@H](CCCNC(=N)N)NC(=O)[C@H](CCCCN)NC(=O)[C@H](CCCNC(=N)N)NC(=O)[C@@H](N)CC(C)C)[C@@H](C)CC)C(=O)NCC(=O)N[C@@H](CCC(N)=O)C(=O)N[C@@H](CCCCN)C(=O)N[C@H](C(=O)N[C@@H](CCC(N)=O)C(=O)NCC(=O)N[C@@H](Cc1ccccc1)C(=O)N[C@H](C(=O)N1CCC[C@H]1C(=O)N[C@@H](CCCCN)C(=O)N[C@@H](CC(C)C)C(=O)O)C(C)C)[C@@H](C)CC,inhibition zone,JM109,,,lethal concentration,1.5 µM
CCCCCCCCCCCCCC(=O)N[C@@H](CCCCN)C(=O)N[C@@H](CCCCN)C(=O)N[C@@H](CCCCN)C(=O)N[C@@H](CCCCN)C(N)=O,,K12,,,MBC,128 µg/mL
